# Measurements from different studies.
# Lines come from different studies, so protocols differ.
# T1: DNA hairpin; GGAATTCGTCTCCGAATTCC
# T2: DNA hairpin; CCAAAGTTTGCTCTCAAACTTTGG
# T3: DNA hairpin, inosine at 6; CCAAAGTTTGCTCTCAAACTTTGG
# T4: DNA hairpin, hairpin, TTTT loop; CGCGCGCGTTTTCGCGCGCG
# T5: DNA hairpin, hairpin, T5 loop; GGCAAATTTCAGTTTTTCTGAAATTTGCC
# T6: DNA hairpin, 8 bp stem, HEG linker; GTTATATCTTGATATAAC
# T7: DNA hairpin, HEG linker; GTTATATCTTGATATAAC
Compound,target,assay,setting,how to read,endpoint,result
N=C(N)c1ccc(-c2ccc(-c3ccc(-c4ccc(C(=N)N)cc4)[se]3)[se]2)cc1,"T1, DNA hairpin",SPR,"pH 6.25, 25 °C, Na+ 100 mM",,Kd,1220 nM
N=C(N)c1ccc(OCc2nc3ccc(-c4ccc(C(=N)N)cc4)nc3[nH]2)cc1,"T2, DNA hairpin",SPR steady state,"pH 7.4, 25 °C, NaCl 100 mM",,Kd,185 nM
N=C(N)c1ccc(-c2ncc(-c3cnc(-c4ccc(C(=N)N)cc4)s3)s2)cc1,"T1, DNA hairpin",UV melting,"6 µM, pH 6.25, Na+ 100 mM","baseline: target alone, higher = more stabilisation",melting temperature shift,15.1 °C
N=C(N)c1ccc(COc2ccc3nc(-c4ccc(C(=N)N)cc4)[nH]c3n2)cc1,"T3, DNA hairpin, inosine at 6",SPR kinetic fit,"pH 7.4, 25 °C, NaCl 100 mM",,Kd,10 nM
[Ru+2].[Ru+2].c1cnc2c(c1)c1nc(-c3ccc(OCCOCCOCCOc4ccc(-c5nc6c7cccnc7c7ncccc7c6[nH]5)cc4)cc3)[nH]c1c1cccnc12.c1cnc2c(c1)ccc1cccnc12.c1cnc2c(c1)ccc1cccnc12.c1cnc2c(c1)ccc1cccnc12.c1cnc2c(c1)ccc1cccnc12,"T4, DNA hairpin, hairpin, TTTT loop",BLI,"pH 7.04, K+ 100 mM",,Kd,2660 nM
N=C(N)c1ccc(NCc2cccc(CNc3ccc(C(=N)NCc4ccc(CNC(=N)c5ccc(NCc6cccc(CNc7ccc(C(=N)N)cc7)c6)cc5)cc4)cc3)c2)cc1,"T5, DNA hairpin, hairpin, T5 loop",SPR,"25 °C, NaCl 100 mM",,Kd,181 nM
C[n+]1ccc(/C=N/NC(=O)c2cccc(C(=O)N/N=C/c3cc[n+](C)c4ccccc34)n2)c2ccccc21,"T6, DNA hairpin, 8 bp stem, HEG linker","thiazole orange displacement, competitor, fluorescent indicator displacement","pH 7.2, KCl 100 mM",,IC50,> 2500 nM
[Ru+2].[Ru+2].c1cnc2c(c1)c1nc(-c3ccc(OCCOCCOCCOCCOc4ccc(-c5nc6c7cccnc7c7ncccc7c6[nH]5)cc4)cc3)[nH]c1c1cccnc12.c1cnc2c(c1)ccc1cccnc12.c1cnc2c(c1)ccc1cccnc12.c1cnc2c(c1)ccc1cccnc12.c1cnc2c(c1)ccc1cccnc12,"T4, DNA hairpin, hairpin, TTTT loop",BLI,"pH 7.04, Na+ 100 mM",,Kd,480 nM
C[n+]1ccc(/C=N/NC(=O)c2cncc(C(=O)N/N=C/c3cc[n+](C)c4ccccc34)n2)c2ccccc21,"T7, DNA hairpin, HEG linker","Thiazole Orange displacement, competitor, fluorescent indicator displacement","pH 7.2, KCl 100 mM",,IC50,> 2500 nM
[Ru+2].[Ru+2].c1cnc2c(c1)c1nc(-c3ccc(OCCOCCOc4ccc(-c5nc6c7cccnc7c7ncccc7c6[nH]5)cc4)cc3)[nH]c1c1cccnc12.c1cnc2c(c1)ccc1cccnc12.c1cnc2c(c1)ccc1cccnc12.c1cnc2c(c1)ccc1cccnc12.c1cnc2c(c1)ccc1cccnc12,"T4, DNA hairpin, hairpin, TTTT loop",BLI,"pH 7.04, K+ 100 mM",,Kd,1150 nM

# Excerpt of the above:
Compound,target,assay,setting,how to read,endpoint,result
C[n+]1ccc(/C=N/NC(=O)c2cncc(C(=O)N/N=C/c3cc[n+](C)c4ccccc34)n2)c2ccccc21,"T7, DNA hairpin, HEG linker","Thiazole Orange displacement, competitor, fluorescent indicator displacement","pH 7.2, KCl 100 mM",,IC50,> 2500 nM
